Experimental data pooled from the literature.
Protocols differ between the studies behind these lines. Values joined by “and” are separate records of one study, mostly repeats; a detail may differ. ± marks the error that the study gave.
Cell line: MDCK

Structure (SMILES)	read-out	tested at	time	pH	notes	measurement	result
Nc1cc(C(F)(F)F)c(-c2nc(N3CCOCC3)nc(N3CCOCC3)n2)cn1	–	1 µM	20 (unit not given)	–	–	Papp B to A	129 ×10⁻⁶ cm/s
Cn1cc(-c2cccc(N3CCc4cc(C(C)(C)C)ccc4C3=O)c2CO)cc(Nc2ccncn2)c1=O	–	10 µM	3 h	–	–	apparent permeability A-B	1.5 ×10⁻⁶ cm/s
CC(C)n1nccc1-c1ncccc1COc1cccc(O)c1C=O	–	1 µM	90 min	pH 6.5 apical, 7.4 basolateral	–	Papp A to B	41.5 ×10⁻⁶ cm/s and 38.4 ×10⁻⁶ cm/s
NC(=O)c1ncn([C@@H]2O[C@H](CO)[C@@H](O)[C@H]2O)n1	–	–	–	–	–	CC50	> 1000 µg/mL
CC(=O)Nc1ccc(O)cc1	–	–	–	–	–	Papp	22.8 ×10⁻⁶ cm/s
C[C@@H]1COCCN1c1nc(-c2cnc(N)cn2)nc2c1C[C@@H]1COCCN21	–	1 µM	20 (unit not given)	–	–	Papp A to B	55.9 ×10⁻⁶ cm/s
OC[C@@H](O)[C@@H](O)[C@H](O)[C@H](O)CO	permeability	–	–	–	–	Papp	1.51 ± 0.267 ×10⁻⁶ cm/s
CCn1c(=O)c2c(nc(/C=C/c3ccc(OC)c(OC)c3)n2C)n(CC)c1=O	–	1 µM	90 min	pH 7.4 apical, 7.4 basolateral	apical to basolateral	mass recovery	105 ± 17%
COc1cc(N2CCC(N3CCN(C)CC3)CC2)ccc1Nc1ncc(Cl)c(Nc2ccccc2P(C)(C)=O)n1	–	–	–	–	–	Papp	2.57 ×10⁻⁶ cm/s
Cc1c(-c2cc(Nc3ccncn3)c(=O)n(C)c2)cccc1N1CCc2c(sc3c2CCCC3)C1=O	–	10 µM	3 h	–	–	apparent permeability B-A	10.7 ×10⁻⁶ cm/s
NC12CC3CC(CC(C3)C1)C2	cell morphology	–	–	–	–	minimum cytotoxic concentration	> 100 µM
C[C@@H]1COCCN1c1nc(-c2cnc(N)c(C(F)(F)F)c2)nc2c1C[C@@H]1COCCN21	–	1 µM	20 (unit not given)	–	–	Papp B to A	137 ×10⁻⁶ cm/s
Cn1cc(-c2cccc(N3CCOc4cc(C(C)(C)C)ccc4C3=O)c2CO)cc(Nc2ccncn2)c1=O	–	10 µM	3 h	–	–	apparent permeability B-A	5.9 ×10⁻⁶ cm/s
O=C1O[C@H]([C@@H](O)Cn2ccnn2)C(OCc2ccccc2)=C1OCc1ccccc1	cell morphology	–	–	–	–	minimum cytotoxic concentration	> 100 µM
C[C@@H](c1ncncc1F)[C@](O)(Cn1cncn1)c1ccc(F)cc1F	–	1 µM	90 min	pH 7.4 apical, 7.4 basolateral	basolateral to apical	mass recovery	108 ± 6%
Cn1cc(-c2cccc(N3CCn4c(cc5c4CCCC5)C3=O)c2CO)cc(Nc2ccncn2)c1=O	–	10 µM	3 h	–	–	apparent permeability B-A	19.1 ×10⁻⁶ cm/s
Cc1cnc(Nc2ccc(OCCN3CCCC3)cc2)nc1Nc1cccc(S(=O)(=O)NC(C)(C)C)c1	permeability basolateral to apical	1 µM	90 min	pH 6.5 apical to 7.4 basolateral	–	Papp	1.34 ×10⁻⁶ cm/s and 0.61 ×10⁻⁶ cm/s
C[C@@H]1COCCN1c1nc(-c2nnc(N)s2)nc2c1C[C@@H]1COCCN21	–	1 µM	20 (unit not given)	–	–	Papp B to A	16.4 ×10⁻⁶ cm/s
Cn1cc(-c2cccc(N3CCc4c(sc5c4CCCC5)C3=O)c2CO)cc(Nc2ccncn2)c1=O	–	10 µM	3 h	–	–	apparent permeability B-A	13.2 ×10⁻⁶ cm/s
CC(=O)Nc1ccc(O)cc1	permeability basolateral to apical	1 µM	90 min	pH 6.5 apical to 7.4 basolateral	–	Papp	8.98 ×10⁻⁶ cm/s and 15.2 ×10⁻⁶ cm/s

A few entries again:
Structure (SMILES)	read-out	tested at	time	pH	notes	measurement	result
C[C@@H](c1ncncc1F)[C@](O)(Cn1cncn1)c1ccc(F)cc1F	–	1 µM	90 min	pH 7.4 apical, 7.4 basolateral	basolateral to apical	mass recovery	108 ± 6%
Cn1cc(-c2cccc(N3CCn4c(cc5c4CCCC5)C3=O)c2CO)cc(Nc2ccncn2)c1=O	–	10 µM	3 h	–	–	apparent permeability B-A	19.1 ×10⁻⁶ cm/s
